Results collected from several papers.
Several values in a cell are separate wells, animals, samples, runs or records.
Target: Aurora kinase C (AURKC, Homo sapiens, UniProt Q9UQB9)

SMILES | test | conditions | scale | measurement | value
COc1ccc(C(=O)/C=C/c2ccccc2-c2c[nH]c3ccc(C#N)cc23)c(O)c1 | enzyme activity, inhibitor | 20 µM |  | inhibition | 4%
C=CC(=O)N1CCc2ccc(-n3c(=O)ccc4cnc5ccc(-c6cnn(C)c6)cc5c43)cc21 | KINOMEscan | 1 µM | baseline: DMSO control | remaining binding | 78%
NC(=O)[C@@H](O)C[C@H]1CCc2sc3ncnc(O[C@H]4CC[C@H](N5CCOCC5)CC4)c3c21 | enzyme activity, inhibitor | 10 µM |  | inhibition | 6%
Cc1cccc(O[C@H]2CCC[C@@H](C(C)CNCc3ccncc3)C2)c1 (relative stereo) | cell-free assay | 1 µM |  | inhibition | 1%
CC(C)=CC1OC(C)(C)C2C=C3C(=O)C(Cl)=CC(O)C3C3C(O)C4OC4C(=O)C132 (stereo not drawn) | cell-free assay, competition with immobilised ligand | 10 µM |  | remaining binding | 86%
C[C@]1(O)CCCN(c2nc(Nc3ccc(S(=O)(=O)N[C@H]4CC[C@H](CN5CCN(c6ccc(C7CCC(=O)NC7=O)cc6F)CC5)CC4)cc3)ncc2C(F)(F)F)C1 (stereo partly drawn) | binding, competition with immobilised ligand | 1 µM |  | remaining binding | 1.1%
C=CC(=O)Nc1cccc(-c2cnc3[nH]cc(C(=O)NC(C)(C)C)c3n2)c1 | kinase activity | 0.1 µM |  | inhibition | 15% and 10%
COc1cc(Nc2nccc(-c3cnn4nc(OC)ccc34)n2)cc(C(F)(F)F)c1 | binding, competition with immobilised ligand | 1 µM |  | remaining binding | 100%
C=CC(=O)N1Cc2nc(-c3cc(-c4cc(Cl)cnc4Cl)c(F)cc3F)n(-c3ccncn3)c2C1 | cell-free assay, inhibitor | 1 µM |  | inhibition | 14.6%
CN1C[C@@H](c2c[nH]c3cc(Br)ccc23)NC[C@@H]1c1c[nH]c2cc(Br)ccc12 | enzyme activity, inhibitor | 10 µM |  | remaining activity | 85%
O=C(Cc1ccc(OCc2ccccc2)cc1)NC1(C(=O)O)CCN(C(=O)c2ccc(-c3cccc(Cl)c3)cc2)CC1 | enzyme activity, inhibitor | 10 µM |  | activity vs control | 98%
Nc1ncc(-c2cc(-c3cnn(CC(F)(F)F)c3)ncc2F)nc1C(=O)NC1CNCC(F)C1 (stereo not drawn) | enzyme activity | 1 µM | baseline: DMSO control | remaining activity | 70.3%
CNC1C[S+]2CC[S+]3CC[S+](C1)[Ru-4]321([N]=C=S)[n]2c3ccc(OC)cc3c3c4c(c5cc(F)c[n+]1c5c32)C(=O)NC4=O (stereo not drawn) | KinomeScan | 0.1 µM | baseline: untreated | remaining binding | 93%
CCN1CCN(Cc2ccc(C(=O)Nc3ccc(C)c(NCc4cnc5[nH]ccc5c4OC)c3)cc2C(F)(F)F)CC1 | binding, competition with immobilised ligand | 1 µM |  | remaining binding | 71%
COc1ccc(NC(=O)Nc2ccc3c(c2)C(=O)N(C(C)CO)CC(C)C(CN(C)Cc2ccc4c(c2)OCO4)O3)cc1 (stereo not drawn) | binding, competition with immobilised ligand | 10 µM |  | remaining binding | 3%

A few entries again:
SMILES | test | conditions | scale | measurement | value
C[C@]1(O)CCCN(c2nc(Nc3ccc(S(=O)(=O)N[C@H]4CC[C@H](CN5CCN(c6ccc(C7CCC(=O)NC7=O)cc6F)CC5)CC4)cc3)ncc2C(F)(F)F)C1 (stereo partly drawn) | binding, competition with immobilised ligand | 1 µM |  | remaining binding | 1.1%
NC(=O)[C@@H](O)C[C@H]1CCc2sc3ncnc(O[C@H]4CC[C@H](N5CCOCC5)CC4)c3c21 | enzyme activity, inhibitor | 10 µM |  | inhibition | 6%
